{"data": "Results pooled from the literature", "note": "Protocols differ between the studies behind these lines. “And” joins repeats or separate records; there may be more than shown. ± gives the spread as reported."}
{"Structure (SMILES)": "CC(C)(C)NCC(SS(=O)(=O)O)c1ccccc1 (stereo not drawn)", "target or system": "Schistosoma mansoni", "test system": "mice", "conditions": "600 mg/kg single dose, dosed day 7, perfused 52", "quantity": "female worms recovered", "value": "11 worms per mouse and 19 worms per mouse and 15 worms per mouse and 16 worms per mouse"}
{"Structure (SMILES)": "CCCC(=O)C#Cc1ccc(F)c(F)c1", "target or system": "Pseudomonas aeruginosa", "assay": "microbial growth, absorbance", "conditions": "100 µM, 24 h", "quantity": "activity vs control", "value": "95%"}
{"Structure (SMILES)": "CC(O)CNCC(C)O.O=C(O)C(Cl)Cl (stereo not drawn)", "target or system": "Solanum nigrum", "assay": "herbicidal activity", "conditions": "15 mg/mL, 21 days, pre-emergence greenhouse", "quantity": "inhibition", "value": "0%"}
{"Structure (SMILES)": "CC1(C)[C@H](NC(=O)/C(=N\\OCC(=O)N2CCC(C(=O)O)CC2)c2csc(N)n2)C(=O)N1OS(=O)(=O)O", "target or system": "Enterobacter aerogenes", "assay": "agar dilution", "test system": "ATCC 13048, susceptible", "quantity": "MIC", "value": "4 µg/mL"}
{"Structure (SMILES)": "CC1C=CC=CC(C)C2C=CC3CC(C)(O)C(Cl)C(C)C3C2C(=O)C(Cl)(Cl)C(=O)C(C)C(=O)O1 (stereo not drawn)", "target or system": "Staphylococcus aureus", "test system": "MSSA clinical isolate", "conditions": "resistant: CIP,DAP,MXF", "quantity": "MIC", "value": "0.025 µg/mL"}
{"Structure (SMILES)": "Cc1ccc(C(=O)c2sc(S)c(-c3nc4ccccc4s3)c2N)cc1", "target or system": "herpes simplex virus 1", "assay": "plaque reduction", "conditions": "non-toxic dose NG, mean over three titres", "quantity": "viral reduction", "value": "10%"}
{"Structure (SMILES)": "Cc1cccc2c1N(C(=O)n1ccnn1)CC2", "target or system": "Arabidopsis thaliana", "test system": "kai2 mutant", "conditions": "30 µM, 72 h", "quantity": "germination rate", "value": "61.2%"}
{"Structure (SMILES)": "Nc1nc(-c2ccccc2)nc2[nH]nc(Nc3cccnc3)c12", "target or system": "rhinovirus B48", "assay": "viral cytopathic effect", "test system": "HeLa", "quantity": "IC50", "value": "28500 nM"}
{"Structure (SMILES)": "C=C1C(=O)OC2C1CCC(C)(O)C13C=CC(C)(C21)C1(C3)C(=O)OC2C3C(C)C(=O)CC3C(=C)CC(OC(C)=O)C21 (stereo not drawn)", "target or system": "Danio rerio", "conditions": "concentration not given, HFD-fed larvae NAFLD model", "quantity": "SOD2 activity", "value": "increased"}
{"Structure (SMILES)": "COC1C=COC2(C)Oc3c(C)c(O)c4c(c3C2=O)C2=NC3(CCN(CC(C)C)CC3)NC2=C(NC(=O)C(C)=CC=CC(C)C(O)C(C)C(O)C(C)C(OC(=O)Nc2cccnn2)C1C)C4=O (stereo not drawn)", "target or system": "Mycobacteroides abscessus", "assay": "bacterial growth", "test system": "subsp. abscessus clinical isolate", "conditions": "slow grower", "quantity": "IC90", "value": "73 nM"}
{"Structure (SMILES)": "CSc1ccc(Nc2n[nH]c3nc(-c4ccccc4)nc(N)c23)cc1", "target or system": "rhinovirus B48", "assay": "viral cytopathic effect", "test system": "HeLa", "quantity": "IC50", "value": "100 nM"}
{"Structure (SMILES)": "CCOC(=O)c1cc(-c2nc3ccccc3s2)c(=O)n(NS(=O)(=O)c2ccc(Cl)cc2)c1N", "target or system": "herpes simplex virus 1", "assay": "viral replication, plaque", "test system": "Vero", "conditions": "non-toxic dose, mean of three titres", "quantity": "plaque reduction", "value": "0%"}
{"Structure (SMILES)": "CC(=O)OC[C@H]1O[C@@H](Sc2sc(C(=O)c3ccc(Br)cc3)c(N)c2-c2nc3ccccc3s2)[C@H](OC(C)=O)[C@@H](OC(C)=O)[C@H]1OC(C)=O", "target or system": "herpes simplex virus 1", "assay": "plaque reduction", "conditions": "non-toxic dose NG, mean over three titres", "quantity": "viral reduction", "value": "40%"}
{"Structure (SMILES)": "CC1(C)C(NC(=O)C(=NOC2(C(=O)O)CCC2)c2csc(N)n2)C(=O)N1OS(=O)(=O)O (stereo not drawn)", "target or system": "Enterobacter aerogenes", "assay": "agar dilution", "test system": "ATCC 13048, susceptible", "quantity": "MIC", "value": "1 µg/mL"}
{"Structure (SMILES)": "Nc1nc(-c2ccccc2)nc2[nH]nc(Nc3cccc(C(F)(F)F)c3)c12", "target or system": "rhinovirus B48", "assay": "viral cytopathic effect", "test system": "HeLa", "quantity": "IC50", "value": "3390 nM"}
{"Structure (SMILES)": "Cc1cc(C(=O)Nc2nc3cccc(C)c3n2[C@H]2CCCCN(C(=O)/C=C/CN(C)C)C2)ccn1", "target or system": "Trypanosoma brucei", "assay": "wash-off", "conditions": "6 h", "quantity": "minimum cidal concentration", "value": "50 µM"}
{"Structure (SMILES)": "CN(C)S(=O)(=O)c1ccc(S(=O)(=O)N2CCC(n3c(=O)[nH]c4ccccc43)CC2)cc1", "target or system": "Klebsiella pneumoniae", "test system": "ATCC 700603, mouse lung infection model, lung", "conditions": "1.5 mg/kg, 24 h", "quantity": "lung bacterial burden", "value": "7.01 log CFU and 5.17 log CFU and 6.09 log CFU and 6.43 log CFU"}
{"Structure (SMILES)": "CC(C)c1ccc(Nc2n[nH]c3nc(-c4ccccc4)nc(N)c23)cc1", "target or system": "rhinovirus B48", "assay": "viral cytopathic effect", "test system": "HeLa", "quantity": "IC50", "value": "2370 nM"}
{"Structure (SMILES)": "C=C(NC(=O)c1csc(-c2nc3c(cc2O)-c2nc(cs2)C(=O)NC(C(C)O)C(=O)NC(=C(C)OC)c2nc(cs2)C(=O)NC2c4nc(cs4)C(=O)NC(COC(=O)c4c5c6c(cccc6n4O)COC(=O)C(OC4CC(C)(O)C(N(C)C)C(C)O4)C2OC5)c2nc-3cs2)n1)C(N)=O (stereo not drawn)", "target or system": "Staphylococcus aureus", "test system": "MRSA, 10 isolates", "conditions": "serum 0%", "quantity": "MIC50", "value": "0.0156 µg/mL"}
{"Structure (SMILES)": "CNC(=O)c1ccc([C@H]2[C@@H](F)[C@@H](F)C[C@@H](F)[C@H]2F)cc1", "assay": "liver microsome stability", "test system": "rat liver microsomes", "conditions": "1 µM", "quantity": "hepatic clearance", "value": "6.9 mL/min/kg"}
{"Structure (SMILES)": "c1ccc(CN2CCOCCOCCN(CCCCCCCCN3CCOCCOCCN(CCCCCCCCN4CCOCCOCCN(Cc5ccccc5)CCOCCOCC4)CCOCCOCC3)CCOCCOCC2)cc1", "target or system": "Klebsiella pneumoniae", "test system": "ATCC BAA-2146", "conditions": "half MIC, added: tetracycline", "quantity": "tetracycline MIC", "value": "25 ± 10 µM"}
{"Structure (SMILES)": "Cc1cccc(Nc2n[nH]c3nc(-c4ccccc4F)nc(N)c23)c1", "target or system": "rhinovirus B48", "assay": "viral cytopathic effect", "test system": "HeLa", "quantity": "IC50", "value": "4320 nM"}
{"Structure (SMILES)": "c1ccc(CN2CCOCCOCCN(CCCCCCCCCCCCCCN3CCOCCOCCN(CCCCCCCCCCCCCCN4CCOCCOCCN(Cc5ccccc5)CCOCCOCC4)CCOCCOCC3)CCOCCOCC2)cc1", "target or system": "Klebsiella pneumoniae", "assay": "checkerboard", "test system": "ATCC BAA-2146", "conditions": "quarter MIC, added: tetracycline", "quantity": "FIC index", "value": 0.58}
{"Structure (SMILES)": "Nc1nc(-c2ccccc2)nc2[nH]nc(Nc3cc(F)ccc3F)c12", "target or system": "rhinovirus B48", "assay": "viral cytopathic effect", "test system": "HeLa", "quantity": "IC50", "value": "690 nM"}
{"Structure (SMILES)": "c1cc(C2CCCCC2)ccc1-c1ccc(N2CCCC2)nc1", "assay": "hepatocyte stability", "test system": "cryopreserved human hepatocytes", "conditions": "1 µM", "quantity": "hepatic clearance", "value": "12 mL/min/kg"}
{"Structure (SMILES)": "CC[C@H](C)CCCCC(=O)N[C@@H](CCN)C(=O)N[C@H](C(=O)N[C@@H](CCN)C(=O)N[C@H]1CCNC(=O)[C@H]([C@@H](C)O)NC(=O)[C@H](CCN)NC(=O)[C@H](CCN)NC(=O)[C@H](CC(C)C)NC(=O)[C@@H](CC(C)C)NC(=O)[C@H](CCN)NC1=O)[C@@H](C)O", "target or system": "Klebsiella pneumoniae", "test system": "BAA-2784, BALB/c mouse peritonitis, liver", "conditions": "dose not given", "quantity": "bacterial load", "value": "9.03 log CFU and 8.64 log CFU and 8.81 log CFU and 8.83 log CFU and 8.72 log CFU"}
{"Structure (SMILES)": "C=C[C@]1(C)C[C@@H](OC(=O)CSc2ccc(NC(=O)c3ccco3)cc2)[C@]2(C)[C@H](C)CC[C@]3(CCC(=O)[C@H]32)[C@@H](C)[C@@H]1O", "target or system": "Mycoplasma gallisepticum", "assay": "sigmoid Emax model, Cmax/MIC", "test system": "infected chickens", "quantity": "Hill slope", "value": 5.09}
{"Structure (SMILES)": "CC(C)C[C@H](NC(=O)[C@H](Cc1ccc(O)cc1)NC(=O)[C@@H]1CCCN1C(=O)[C@H](CCCNC(=N)N)NC(=O)[C@@H]1CCCN1C(=O)[C@H](CCCCN)NC(=O)[C@H](CC(=O)O)NC(=O)[C@@H]1CCCN1C(=O)[C@H](CCCNC(=N)N)NC(=O)C1(N)CCCCC1)C(=O)N1CCC[C@H]1C(=O)N[C@@H](CCCNC(=N)N)C(=O)N1CCC[C@H]1C(=O)N[C@@H](CCCNC(=N)N)C(=O)N1CCC[C@H]1C(=O)N1CCC[C@H]1C(=O)N[C@@H](CCCNC(=N)N)C(=O)N1CCC[C@H]1C(=O)N[C@H](C(=O)N[C@@H](CCCNC(=N)N)C(=O)N[C@@H](CSCc1ccccc1CSC[C@H](NC(=O)[C@H](CCCNC(=N)N)NC(=O)[C@@H](NC(=O)[C@@H]1CCCN1C(=O)[C@H](CCCNC(=N)N)NC(=O)[C@@H]1CCCN1C(=O)[C@@H]1CCCN1C(=O)[C@H](CCCNC(=N)N)NC(=O)[C@@H]1CCCN1C(=O)[C@H](CCCNC(=N)N)NC(=O)[C@@H]1CCCN1C(=O)[C@H](CC(C)C)NC(=O)[C@H](Cc1ccc(O)cc1)NC(=O)[C@@H]1CCCN1C(=O)[C@H](CCCNC(=N)N)NC(=O)[C@@H]1CCCN1C(=O)[C@H](CCCCN)NC(=O)[C@H](CC(=O)O)NC(=O)[C@@H]1CCCN1C(=O)[C@H](CCCNC(=N)N)NC(=O)C1(N)CCCCC1)C(C)C)C(=O)NN)C(=O)NN)C(C)C", "target or system": "Klebsiella pneumoniae", "assay": "membrane disruption, propidium iodide uptake", "test system": "13883", "conditions": "90 min, 37 °C", "quantity": "MDC", "value": "18.1 ± 2 µg/mL"}
{"Structure (SMILES)": "c1ccc(CN2CCOCCOCCN(CCCCCCCCCCN3CCOCCOCCN(CCCCCCCCCCN4CCOCCOCCN(Cc5ccccc5)CCOCCOCC4)CCOCCOCC3)CCOCCOCC2)cc1", "target or system": "Klebsiella pneumoniae", "assay": "checkerboard", "test system": "ATCC BAA-2146", "conditions": "half MIC, added: tetracycline", "quantity": "FIC index", "value": 0.63}
{"Structure (SMILES)": "Cc1cc(Cl)cc(S(C)=NC#N)c1NC(=O)c1cc(Br)nn1-c1ncccc1Cl (stereo not drawn)", "target or system": "Plutella xylostella", "test system": "Raphanus sativus field", "conditions": "50 ppm, 168 h, 10% wettable powder", "quantity": "corrected larval mortality", "value": "90.4%"}
{"note": "A few entries again:"}
{"Structure (SMILES)": "Nc1nc(-c2ccccc2)nc2[nH]nc(Nc3cccnc3)c12", "target or system": "rhinovirus B48", "assay": "viral cytopathic effect", "test system": "HeLa", "quantity": "IC50", "value": "28500 nM"}
{"Structure (SMILES)": "CC1(C)[C@H](NC(=O)/C(=N\\OCC(=O)N2CCC(C(=O)O)CC2)c2csc(N)n2)C(=O)N1OS(=O)(=O)O", "target or system": "Enterobacter aerogenes", "assay": "agar dilution", "test system": "ATCC 13048, susceptible", "quantity": "MIC", "value": "4 µg/mL"}
{"Structure (SMILES)": "CC1C=CC=CC(C)C2C=CC3CC(C)(O)C(Cl)C(C)C3C2C(=O)C(Cl)(Cl)C(=O)C(C)C(=O)O1 (stereo not drawn)", "target or system": "Staphylococcus aureus", "test system": "MSSA clinical isolate", "conditions": "resistant: CIP,DAP,MXF", "quantity": "MIC", "value": "0.025 µg/mL"}
{"Structure (SMILES)": "CC[C@H](C)CCCCC(=O)N[C@@H](CCN)C(=O)N[C@H](C(=O)N[C@@H](CCN)C(=O)N[C@H]1CCNC(=O)[C@H]([C@@H](C)O)NC(=O)[C@H](CCN)NC(=O)[C@H](CCN)NC(=O)[C@H](CC(C)C)NC(=O)[C@@H](CC(C)C)NC(=O)[C@H](CCN)NC1=O)[C@@H](C)O", "target or system": "Klebsiella pneumoniae", "test system": "BAA-2784, BALB/c mouse peritonitis, liver", "conditions": "dose not given", "quantity": "bacterial load", "value": "9.03 log CFU and 8.64 log CFU and 8.81 log CFU and 8.83 log CFU and 8.72 log CFU"}
